# Experimental data pooled from the literature.
# Every numbered part comes from another study and shows a few of its results, in no order. Changes are numbered by the printed parent chain.

# Set 1 — method: DHFR PCA, deep sequencing; medium: yeast; with: (+)-ABA 0.032 µM; baseline: wild-type fitted maximum; reading: higher = stronger binding
# Target: ABI1, truncated, D143A, DHFR fusion (Arabidopsis thaliana)
# Setting: methotrexate growth selection, single substitutions
# Starting sequence: PYL1, truncated, DHFR fusion (Arabidopsis thaliana); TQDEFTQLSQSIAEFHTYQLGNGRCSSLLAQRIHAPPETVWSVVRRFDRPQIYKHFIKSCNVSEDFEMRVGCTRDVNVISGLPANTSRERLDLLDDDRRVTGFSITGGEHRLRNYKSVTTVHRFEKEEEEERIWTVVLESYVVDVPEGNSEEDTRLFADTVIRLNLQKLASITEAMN; partner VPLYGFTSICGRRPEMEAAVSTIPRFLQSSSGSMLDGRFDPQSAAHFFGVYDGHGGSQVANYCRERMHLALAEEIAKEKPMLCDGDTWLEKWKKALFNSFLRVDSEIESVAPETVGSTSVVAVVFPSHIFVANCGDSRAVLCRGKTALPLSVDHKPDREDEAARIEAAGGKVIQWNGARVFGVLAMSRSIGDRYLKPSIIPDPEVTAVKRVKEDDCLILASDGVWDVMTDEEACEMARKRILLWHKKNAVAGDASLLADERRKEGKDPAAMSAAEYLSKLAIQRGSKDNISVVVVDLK
Variant,relative binding score
E147G,-4.98%
I33K,-7.13%
V78G,-0.283%
A13L,13.1%
L94E,-1%
Q2C,31.2%
L169R,1.4%
N22F,14.6%
I52M,34.2%
I172L,11.9%
D159Q,-1.32%
Q19K,42.7%
S80E,-2.42%
T6S,29.4%
T106Q,14.4%
D153I,-7.03%
H16D,6.96%
G102H,-0.241%
L82V,10.6%
E125Y,34.4%
F56C,-0.211%

# Set 2 — target: CCND2, cyclin fold, Cln2 fusion (human); method: yeast growth competition, sequencing; medium: yeast; setting: strong parent motif; baseline: not given; reading: higher = stronger binding
# Starting sequence: INSM1 docking peptide (human); PKAIRKLHFEDEV
Variant,normalised enrichment score
L7W,-0.227
E10W,0.488
E12P,2.42
K6I,1.4
A3Q,-0.0543
E10H,1.14
E10P,1.88
I4T,0.761
F9Q,0.00177
K6Q,2.06
L7E,0.176
K6R,2.07
E10G,2.53
E12K,1.75
L7D,-0.144
R5W,0.473
I4V,1.36
E12W,1.62

# Set 3 — target: CRIPT, C-terminal peptide; method: DHFR complementation, deep sequencing; medium: yeast; baseline: wild type; reading: higher = weaker binding
# Setting: single substitutions, model-inferred values
# Starting sequence: ERBIN, PDZ domain 1 (human); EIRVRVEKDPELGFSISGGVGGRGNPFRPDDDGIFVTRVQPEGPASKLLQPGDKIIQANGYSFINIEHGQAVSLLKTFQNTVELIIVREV; partner TKNYKQTSV
Variant,binding free energy change
V6G,1 kcal/mol
G21V,0.596 kcal/mol
T81F,0.281 kcal/mol
P29G,0.144 kcal/mol
P26E,0.94 kcal/mol
D30E,-0.0247 kcal/mol
Q57F,0.0882 kcal/mol
D31Y,1.44 kcal/mol
Y61I,0.0379 kcal/mol
I34G,0.295 kcal/mol
G43V,0.778 kcal/mol

# Set 4 — method: RNA Bind-n-Seq; molecule type: RNA; medium: in vitro; tested at: 20 nM; setting: 6-mer, flanks averaged, single round; with: 150 mM KCl; baseline: input library; reading: higher = stronger binding
# Target: TAR DNA-binding protein 43, full length, His tag (TARDBP, Homo sapiens, UniProt Q13148, residues 1-414)
Strand,6-mer enrichment (R)
GUCGGA,1.36
UUGUUU,0.745
GUGCAG,1.55
CUUGCC,0.646
ACCAGC,0.724
UGCGUU,0.763
AGCACG,0.964
AUUAAU,0.616
GUAGAA,1.03
ACCUGC,0.647
AUAAUC,0.607
UAGACU,0.619
GUACGA,0.954
UAAUCG,0.61
CGCAGC,0.872
CGGCUA,0.824
AGUUCG,0.723
CGCGAC,0.84
ACGCCG,0.85
UAAAGC,0.629
UACUGG,0.915
GAUCUA,0.602
UAGAAA,0.705
GGCACC,1.1
AAGCCC,0.637

# Set 5 — method: protein-binding microarray; molecule type: double-stranded DNA, one strand shown; medium: in vitro; tested at: 250 nM; setting: 60-bp whole probe; with: salmon DNA 0.4 mg/ml; baseline: random background probes; reading: higher = stronger binding; all sequences stand within: GCCTAGCAC … GTCTTGATTCGCTTGACGCTGCTG
# Target: Interferon regulatory factor 7, full length, phosphomimetic (IRF7, Homo sapiens, UniProt Q92985, residues 1-503, S101K/S471D/S472D/S475D/S476D/S477D/S483D/S484D/S487D)
# UniProt Q92985, sequence (whole entry, unmodified, looked up): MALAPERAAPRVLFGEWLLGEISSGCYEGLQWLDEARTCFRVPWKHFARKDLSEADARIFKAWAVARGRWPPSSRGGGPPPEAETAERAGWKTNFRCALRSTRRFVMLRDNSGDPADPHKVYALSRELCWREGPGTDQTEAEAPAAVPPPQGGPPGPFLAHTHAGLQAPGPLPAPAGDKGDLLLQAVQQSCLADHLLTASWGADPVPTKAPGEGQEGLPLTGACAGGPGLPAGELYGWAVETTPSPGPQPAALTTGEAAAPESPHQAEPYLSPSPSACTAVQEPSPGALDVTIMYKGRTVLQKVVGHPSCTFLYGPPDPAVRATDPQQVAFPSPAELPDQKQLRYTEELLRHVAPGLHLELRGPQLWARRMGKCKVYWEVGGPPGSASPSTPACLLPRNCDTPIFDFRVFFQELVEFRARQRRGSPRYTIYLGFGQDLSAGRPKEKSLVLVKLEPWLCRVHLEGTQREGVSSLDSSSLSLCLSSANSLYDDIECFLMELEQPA
Strand,log fluorescence [z-score]
TTAGATATCAGTATCGATAAGTGCTAG,0.256
GACGGTTTCGGGACTGGGCACGTGCTA,3.72
TCTGCTTTGCCTTCAGCCCGGTGCTAG,-0.351
GACGGACTGGACGATCGGGACGTGCTA,-0.476
TCAAAAATGGCTTTGCAACTGTGCTAG,-0.636
GGTGTAAGGAACTGAAGTGAGTGCTAG,-0.75
TCAGTTATTAAATTTTCAACTGTGCTA,0.319
GACGGACTGGGGTCTGGGGACGTGCTA,-0.646
TCACTTCCATTTTCTGAAACTGTGCTA,1.98
ATGCATGTGCTGTCTCAGAGTGTGCTA,-0.284
TTAGGTTCCGGTTCCGGTTAGTGCTAG,6.06
GACGGTATCGACACTAGGGACGTGCTA,-0.243
TCATGTTTTTTTCTACTACTGTGCTAG,1.47
GACGATTTCAGTCTCGCGACGTGCTAG,0.057
TTAGATTTCAGTTCCGTTTAGTGCTAG,3.27
TTAGGACTGAGTTTCGATTAGTGCTAG,7.8
TCAGTTCCCTATATAAGACTGTGCTAG,2.14
TAAGGACTGGGGTTTCGGTTAGTGCTA,5.99

# Set 6 — target: ATF3, bZIP domain (human); method: DHFR protein complementation; medium: yeast; baseline: wild-type JUN-FOS pair; reading: higher = stronger binding
# Setting: single substitutions, most at no-binding floor
# Starting sequence: JUN, bZIP domain (human); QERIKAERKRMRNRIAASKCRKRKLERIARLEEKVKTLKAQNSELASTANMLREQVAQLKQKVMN; partner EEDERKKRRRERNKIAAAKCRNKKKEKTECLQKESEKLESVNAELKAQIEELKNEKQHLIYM
Variant,binding fitness [natural log]
N42T,-0.639
N42Q,-0.167
N42L,-1.06
K36E,-0.0964
K34L,-0.283
A49C,-0.124
L45P,-1.25
A57Q,-0.231
E54L,-0.328
A46E,0.00159
S47H,-0.0803
T48C,-0.154
V35T,-0.512
V35H,-0.774
N42F,-0.455
N42Y,-0.231
L31C,-0.677
L38V,-0.942
A46P,-1.06
E32L,-0.371
A29P,-0.437
K39V,-0.379
R30A,0.107

# Set 7 — method: universal PBM; molecule type: double-stranded DNA, one strand shown; medium: in vitro; tested at: not given; reading: higher = stronger binding
# Target: Sal-like protein 4, full length isoform B (SALL4, Homo sapiens, UniProt Q9UJQ4-2, residues 1-616)
# Setting: 8-mer, flanks averaged, mean of replicates
Strand,E-score
ACGAATCC,0.0625
ACATCTAA,0.138
ACATGACG,0.0795
CAGACTGG,-0.0934
ACGTAAAT,0.191
GTACACAA,0.114
GCATGTAA,0.219
AACTGTTC,-0.0911
CCGATTAG,-0.119
CCTGAAAC,0.0151
AAAGATTC,0.157
ATGCTTCA,0.0941
GAATGGGA,-0.0784
ATTGCAGG,0.0747
TCCGCCAA,-0.178
AAGGCTCC,-0.301
ATCCACTC,-0.0263
ATAACGAA,0.27

# Excerpt of the above (set 1):
Variant,relative binding score
I33K,-7.13%
I52M,34.2%
L94E,-1%
D159Q,-1.32%
Q2C,31.2%
A13L,13.1%
L169R,1.4%
N22F,14.6%
E147G,-4.98%
H16D,6.96%
L82V,10.6%
T106Q,14.4%
Q19K,42.7%
F56C,-0.211%
G102H,-0.241%
S80E,-2.42%
E125Y,34.4%
I172L,11.9%
T6S,29.4%
